Experimental data pooled from the literature.
Numbered parts are unrelated; each lists some results of a single study. “And” joins repeats or separate records; there may be more than shown. Positions count from the first letter of the parent shown.
Sequence of UniProt O15075 (whole entry, looked up): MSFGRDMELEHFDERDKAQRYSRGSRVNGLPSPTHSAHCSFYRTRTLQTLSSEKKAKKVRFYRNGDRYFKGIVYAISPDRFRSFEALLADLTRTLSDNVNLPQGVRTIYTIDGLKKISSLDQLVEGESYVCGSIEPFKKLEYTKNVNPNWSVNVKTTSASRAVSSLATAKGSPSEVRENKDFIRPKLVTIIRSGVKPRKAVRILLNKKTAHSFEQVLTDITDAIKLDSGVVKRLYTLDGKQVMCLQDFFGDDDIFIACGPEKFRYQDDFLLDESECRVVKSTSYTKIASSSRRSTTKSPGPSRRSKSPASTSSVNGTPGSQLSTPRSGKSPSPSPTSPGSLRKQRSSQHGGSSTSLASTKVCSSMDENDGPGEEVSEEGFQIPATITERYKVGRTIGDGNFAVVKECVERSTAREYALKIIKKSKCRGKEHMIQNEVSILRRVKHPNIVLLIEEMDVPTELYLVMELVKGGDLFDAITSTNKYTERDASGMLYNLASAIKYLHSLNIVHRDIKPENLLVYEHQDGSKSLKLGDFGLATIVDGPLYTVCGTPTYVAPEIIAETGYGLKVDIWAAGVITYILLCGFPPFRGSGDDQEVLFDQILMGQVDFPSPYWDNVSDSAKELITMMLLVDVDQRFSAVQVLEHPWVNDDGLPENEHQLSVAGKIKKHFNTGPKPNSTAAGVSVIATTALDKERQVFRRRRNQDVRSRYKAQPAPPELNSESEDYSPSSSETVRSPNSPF
Sequence of UniProt Q8TF76 (whole entry, looked up): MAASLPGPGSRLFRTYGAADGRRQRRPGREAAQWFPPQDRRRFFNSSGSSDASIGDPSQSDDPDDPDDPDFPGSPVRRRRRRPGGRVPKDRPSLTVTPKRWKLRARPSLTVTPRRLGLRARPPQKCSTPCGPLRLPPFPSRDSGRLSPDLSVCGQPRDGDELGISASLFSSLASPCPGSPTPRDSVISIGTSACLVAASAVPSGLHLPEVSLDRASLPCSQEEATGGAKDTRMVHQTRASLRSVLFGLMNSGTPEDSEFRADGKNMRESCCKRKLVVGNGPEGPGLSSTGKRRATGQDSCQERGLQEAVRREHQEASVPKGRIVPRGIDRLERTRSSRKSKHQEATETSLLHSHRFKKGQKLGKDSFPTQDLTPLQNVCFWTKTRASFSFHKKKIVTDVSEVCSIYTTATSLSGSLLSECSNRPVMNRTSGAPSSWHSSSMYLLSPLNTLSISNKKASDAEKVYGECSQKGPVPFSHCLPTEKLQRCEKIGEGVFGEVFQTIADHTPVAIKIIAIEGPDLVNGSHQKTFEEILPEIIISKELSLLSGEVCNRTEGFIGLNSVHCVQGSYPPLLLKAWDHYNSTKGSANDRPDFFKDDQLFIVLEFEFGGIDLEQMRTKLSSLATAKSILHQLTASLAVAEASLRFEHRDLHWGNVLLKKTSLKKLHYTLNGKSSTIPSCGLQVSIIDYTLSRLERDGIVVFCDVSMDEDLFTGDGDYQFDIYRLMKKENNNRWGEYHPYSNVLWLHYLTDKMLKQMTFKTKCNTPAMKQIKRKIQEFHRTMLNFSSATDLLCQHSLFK
Sequence of UniProt Q6P2M8 (whole entry, looked up): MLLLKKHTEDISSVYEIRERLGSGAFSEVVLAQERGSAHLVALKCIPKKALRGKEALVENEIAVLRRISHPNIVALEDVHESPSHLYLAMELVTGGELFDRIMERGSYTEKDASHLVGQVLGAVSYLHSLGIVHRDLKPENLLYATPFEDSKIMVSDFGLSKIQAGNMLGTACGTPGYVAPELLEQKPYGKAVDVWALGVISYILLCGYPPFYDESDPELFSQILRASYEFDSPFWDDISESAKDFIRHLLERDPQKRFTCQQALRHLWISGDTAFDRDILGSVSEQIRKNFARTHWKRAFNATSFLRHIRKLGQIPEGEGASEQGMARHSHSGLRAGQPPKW
Sequence of UniProt P10721 (whole entry, unmodified, looked up): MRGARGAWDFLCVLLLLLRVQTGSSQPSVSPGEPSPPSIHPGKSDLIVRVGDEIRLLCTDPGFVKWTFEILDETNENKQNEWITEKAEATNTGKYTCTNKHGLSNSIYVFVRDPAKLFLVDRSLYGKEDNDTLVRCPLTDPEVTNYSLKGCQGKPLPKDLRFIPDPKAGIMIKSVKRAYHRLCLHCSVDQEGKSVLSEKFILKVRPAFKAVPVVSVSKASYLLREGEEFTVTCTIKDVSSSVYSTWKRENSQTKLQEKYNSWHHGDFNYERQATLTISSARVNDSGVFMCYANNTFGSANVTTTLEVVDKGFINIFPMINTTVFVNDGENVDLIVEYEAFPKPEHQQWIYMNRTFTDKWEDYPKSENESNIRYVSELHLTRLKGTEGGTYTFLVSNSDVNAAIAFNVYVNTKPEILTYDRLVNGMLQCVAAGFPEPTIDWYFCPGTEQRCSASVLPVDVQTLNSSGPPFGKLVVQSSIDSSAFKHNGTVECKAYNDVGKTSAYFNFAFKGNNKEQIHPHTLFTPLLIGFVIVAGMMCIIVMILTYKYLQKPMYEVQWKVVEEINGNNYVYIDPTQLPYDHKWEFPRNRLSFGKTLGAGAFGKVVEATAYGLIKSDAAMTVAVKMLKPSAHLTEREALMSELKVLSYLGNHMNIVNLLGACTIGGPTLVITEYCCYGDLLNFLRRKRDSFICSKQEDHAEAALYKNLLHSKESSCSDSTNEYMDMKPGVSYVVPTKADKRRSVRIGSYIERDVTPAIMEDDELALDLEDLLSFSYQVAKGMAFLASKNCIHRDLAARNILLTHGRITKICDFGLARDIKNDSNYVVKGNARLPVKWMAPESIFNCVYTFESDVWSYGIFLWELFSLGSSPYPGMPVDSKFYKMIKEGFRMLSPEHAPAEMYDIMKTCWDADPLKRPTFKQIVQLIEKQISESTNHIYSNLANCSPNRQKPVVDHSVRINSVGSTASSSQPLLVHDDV
Sequence of UniProt P04629 (whole entry, looked up): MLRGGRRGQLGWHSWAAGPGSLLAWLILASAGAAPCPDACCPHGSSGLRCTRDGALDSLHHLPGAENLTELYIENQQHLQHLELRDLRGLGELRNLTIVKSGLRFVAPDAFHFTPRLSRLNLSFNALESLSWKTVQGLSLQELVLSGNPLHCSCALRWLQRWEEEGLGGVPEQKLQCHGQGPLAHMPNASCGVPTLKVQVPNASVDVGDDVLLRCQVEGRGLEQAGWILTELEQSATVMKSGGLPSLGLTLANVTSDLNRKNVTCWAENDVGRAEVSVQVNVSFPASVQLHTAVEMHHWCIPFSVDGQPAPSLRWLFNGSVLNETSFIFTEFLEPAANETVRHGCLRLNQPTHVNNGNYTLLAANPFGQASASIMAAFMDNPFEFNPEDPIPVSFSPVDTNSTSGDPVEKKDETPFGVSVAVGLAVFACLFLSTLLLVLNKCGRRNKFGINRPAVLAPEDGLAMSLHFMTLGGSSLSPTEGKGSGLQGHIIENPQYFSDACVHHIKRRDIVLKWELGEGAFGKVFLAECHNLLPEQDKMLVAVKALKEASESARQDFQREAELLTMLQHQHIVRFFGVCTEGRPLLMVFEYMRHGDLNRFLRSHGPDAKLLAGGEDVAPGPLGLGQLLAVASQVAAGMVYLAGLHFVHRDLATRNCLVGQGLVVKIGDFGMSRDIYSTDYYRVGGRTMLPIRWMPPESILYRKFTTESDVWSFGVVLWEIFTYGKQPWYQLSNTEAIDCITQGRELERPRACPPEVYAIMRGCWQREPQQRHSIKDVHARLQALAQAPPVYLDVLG
Sequence of UniProt O15146 (whole entry, looked up): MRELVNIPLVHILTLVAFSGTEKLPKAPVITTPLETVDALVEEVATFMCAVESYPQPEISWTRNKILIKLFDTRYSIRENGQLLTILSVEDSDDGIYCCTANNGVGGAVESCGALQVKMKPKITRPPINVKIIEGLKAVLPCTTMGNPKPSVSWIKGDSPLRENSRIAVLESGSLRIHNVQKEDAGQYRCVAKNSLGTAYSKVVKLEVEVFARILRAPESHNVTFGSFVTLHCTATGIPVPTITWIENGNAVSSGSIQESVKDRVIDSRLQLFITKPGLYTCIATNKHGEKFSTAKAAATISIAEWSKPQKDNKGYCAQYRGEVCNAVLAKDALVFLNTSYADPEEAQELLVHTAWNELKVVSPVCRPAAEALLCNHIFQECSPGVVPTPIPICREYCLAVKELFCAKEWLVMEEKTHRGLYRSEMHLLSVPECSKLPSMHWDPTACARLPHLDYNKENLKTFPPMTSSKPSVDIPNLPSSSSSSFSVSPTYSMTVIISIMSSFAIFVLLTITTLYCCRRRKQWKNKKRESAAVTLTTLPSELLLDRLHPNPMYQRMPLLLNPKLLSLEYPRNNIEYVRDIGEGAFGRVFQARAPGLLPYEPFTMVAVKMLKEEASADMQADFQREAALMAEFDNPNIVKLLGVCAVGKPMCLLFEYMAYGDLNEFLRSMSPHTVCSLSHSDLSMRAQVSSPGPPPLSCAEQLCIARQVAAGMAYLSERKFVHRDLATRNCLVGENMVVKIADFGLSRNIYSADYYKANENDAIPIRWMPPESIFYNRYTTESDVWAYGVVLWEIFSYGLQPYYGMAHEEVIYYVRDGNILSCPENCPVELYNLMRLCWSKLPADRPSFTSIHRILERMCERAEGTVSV
Sequence of UniProt Q00534 (whole entry, looked up): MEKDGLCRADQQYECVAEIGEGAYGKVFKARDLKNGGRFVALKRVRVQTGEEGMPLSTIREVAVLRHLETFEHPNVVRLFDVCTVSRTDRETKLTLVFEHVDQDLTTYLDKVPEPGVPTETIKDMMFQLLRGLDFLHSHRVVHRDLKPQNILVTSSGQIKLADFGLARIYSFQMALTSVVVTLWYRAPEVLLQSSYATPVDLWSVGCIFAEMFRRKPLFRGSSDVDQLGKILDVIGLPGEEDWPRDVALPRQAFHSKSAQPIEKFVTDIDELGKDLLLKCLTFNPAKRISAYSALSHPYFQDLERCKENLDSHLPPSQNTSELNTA

Series 1
SMILES: CCn1cnc2c(Nc3cccc(Cl)c3)nc(N[C@H]3CCCC[C@H]3N)nc21
Observed: enzyme activity
Action: inhibitor
Concentration: 0.5 µM
Relative to: control
| target | remaining activity [%] |
| --- | --- |
| NTRK1 (Homo sapiens, UniProt P04629) | 92.9 |
| Cyclin-dependent kinase 6, with cyclin D1 (CDK6, Homo sapiens, UniProt Q00534) | 60.9 |
| ZAP70 (Homo sapiens, UniProt P43403) | 106 |
| HASPIN (Homo sapiens, UniProt Q8TF76) | 90.4 |

Series 2
Target: CCNE1, cyclin fold, Cln2 fusion (human)
Technique: yeast growth competition, sequencing
Matrix: yeast
Notes: strong parent motif
Relative to: not given
Direction: higher = stronger binding
Starting sequence: viral docking peptide; YKVKRRLVFGADD; partner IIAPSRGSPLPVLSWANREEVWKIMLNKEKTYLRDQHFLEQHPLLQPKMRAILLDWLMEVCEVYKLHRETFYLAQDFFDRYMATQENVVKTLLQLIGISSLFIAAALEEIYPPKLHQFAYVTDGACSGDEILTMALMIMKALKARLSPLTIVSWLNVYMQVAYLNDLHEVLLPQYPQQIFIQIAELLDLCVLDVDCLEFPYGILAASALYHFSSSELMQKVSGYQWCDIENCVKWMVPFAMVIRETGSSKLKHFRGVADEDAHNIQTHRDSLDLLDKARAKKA
| Substitution | normalised enrichment score |
| --- | --- |
| YKKKRRLVFGADD [V3K] | 0.431 |
| YKVKRRLVMGADD [F9M] | 1.24 |
| YKVKYRLVFGADD [R5Y] | 0.143 |
| YKNKRRLVFGADD [V3N] | 0.368 |
| YKVKWRLVFGADD [R5W] | 0.979 |
| YKVKRRMVFGADD [L7M] | 0.55 |
| YKVKSRLVFGADD [R5S] | 0.162 |
| YKVKRRLVFGRDD [A11R] | 5.5 |

Series 3
Compound: CNC(=O)c1ccc(-c2cnn3ccc(C(=O)N(C)c4ccc(Cl)c(C(=O)OC)c4)cc23)cc1
Organism: Cryptosporidium parvum
Technique: time-kill
Strain: nanoluciferase-expressing
Relative to: DMSO
| concentration | time | luminescence |
| --- | --- | --- |
| 81 nM | 8 h | 89.6% and 83.1% |
| 27 nM | 0 h | 97.4% and 91.2% and 99.4% and 90.3% and 103% and 90.1% and 98% and 91.4% |
| 27 nM | 24 h | 32.2% and 30.1% |

Series 4
Compound: Cn1cncc1[C@](O)(COc1ccc(C#N)cc1-c1ccc(OC(F)(F)F)cc1)c1ccc(C#N)cc1
Observed: cell-free assay
Technique: competition with immobilised ligand
Concentration: 1 µM
| target | remaining binding |
| --- | --- |
| ALK (Homo sapiens, UniProt Q9UM73, L1196M) | 100% |
| PIK3CA (Homo sapiens, UniProt P42336, E545K) | 97% |
| KIT (Homo sapiens, UniProt P10721, L576P) | 100% |
| CSNK2A1 (Homo sapiens, UniProt P68400) | 63% |
| MUSK (Homo sapiens, UniProt O15146) | 93% |
| MAK (Homo sapiens, UniProt P20794) | 100% |
| TNIK (Homo sapiens, UniProt Q9UKE5) | 81% |
| FES (Homo sapiens, UniProt P07332) | 100% |
| FGR (Homo sapiens, UniProt P09769) | 100% |
| ERBB3 (Homo sapiens, UniProt P21860) | 87% |
| PNCK (Homo sapiens, UniProt Q6P2M8) | 60% |
| EPHB6 (Homo sapiens, UniProt O15197) | 95% |
| DCLK1 (Homo sapiens, UniProt O15075) | 94% |
| SRPK2 (Homo sapiens, UniProt P78362) | 100% |
| Insulin receptor (INSR, Homo sapiens, UniProt P06213) | 100% |

Single results of other studies
| Compound | cell line | test | conditions | how to read | measurement | value |
| --- | --- | --- | --- | --- | --- | --- |
| C=C1CC[C@@]2(O)[C@H]3Cc4ccc(O)c5c4[C@@]2(CCN3CC2CC2)[C@H]1O5 | HaCaT |  | 100 µM, 18 h |  | viability | 112% |
| Cc1sc2c(c1C)C(c1ccc(Cl)cc1)=NC(CC(=O)OC(C)(C)C)c1nnc(C)n1-2 (stereo not drawn) | mouse MPNST tumor cells | high-content immunofluorescence imaging, measured: nuclear SOX9 | 10 µM, 12 h, mean of 2 replicates | relative to: DMSO control, higher = more nuclear SOX9 | nuclear SOX9 intensity | 124 % of DMSO |
| NC(=O)CN1CCCC1=O | A-375 |  | 100 µM, 18 h |  | viability | 87.7% |
| NCC(CC(=O)O)c1ccc(Cl)cc1 (stereo not drawn) | mouse MPNST tumor cells | high-content immunofluorescence imaging, measured: nuclear SOX9 | 10 µM, 12 h, mean of 2 replicates | relative to: DMSO control, higher = more nuclear SOX9 | nuclear SOX9 intensity | 101 % of DMSO |
| CC[C@]12C=CCN3CC[C@]4(C(=C(C(=O)OC)C1)Nc1ccccc14)[C@@H]32 | HaCaT |  | 100 µM, 18 h |  | viability | 56.8% |
| CCOc1ccc(Nc2c3c(nc4ccccc24)CCC3)cc1 | HEK293 | resazurin | 3.32 µM, 10% serum |  | cytotoxicity | 19% and 10% |

For quick reference, copied from above (series 3):
| concentration | time | luminescence |
| --- | --- | --- |
| 27 nM | 0 h | 97.4% and 91.2% and 99.4% and 90.3% and 103% and 90.1% and 98% and 91.4% |
| 27 nM | 24 h | 32.2% and 30.1% |
| 81 nM | 8 h | 89.6% and 83.1% |
